Results pooled from the literature.
Each line is one published result; not all experiments were run side by side. Numbers after ± are the reported error.

Structure (SMILES)	organism	test	test system	setting	how to read	inhibition
COC(=O)[C@H](CCSC)NC(=O)[C@H]1O[C@@H](O[C@H]2[C@@H](O[C@H]3CC[C@]4(C)[C@H]5C(=O)C=C6[C@@H]7C[C@@](C)(C(=O)N[C@@H](CCSC)C(=O)OC)CC[C@]7(C)CC[C@@]6(C)[C@]5(C)CC[C@H]4C3(C)C)O[C@H](C(=O)N[C@@H](CCSC)C(=O)OC)[C@@H](O)[C@@H]2O)[C@H](O)[C@@H](O)[C@@H]1O	dengue virus type 2	viral replication	Vero E6	10 µM, 96 h	baseline: infected untreated	> 50%
N=C(N)c1ccc(-c2ccc(-c3cccs3)o2)cc1F	Salmonella enterica	sodium azide mutagenicity	TA1535	20 µM, 48 h, with: sodium azide 2 µg/plate after pre-exposure	–	86%
CCn1cc(C(=O)NCc2ccncc2)c(=O)c2cc(F)c(N3CCN(C(=O)c4ccco4)CC3)cc21	Mycolicibacterium smegmatis	microbial growth	–	50 µM	–	~20%
N#Cc1ccc(-c2ccc(-c3ccco3)o2)cc1F	Salmonella enterica	sodium azide mutagenicity	TA1535	10 µM, 48 h, with: sodium azide 2 µg/plate after pre-exposure	–	62%
C[C@H](Cn1cnc2c(N)ncnc21)OCP(=O)(O)O	human alphaherpesvirus 2	virus production	human monocytes/macrophages	5 µg/mL, 6 days	–	80%
COc1cc([C@@H]2c3cc4c(cc3[C@@H](O[C@@H]3O[C@@H]5CO[C@@H](C)O[C@H]5[C@H](O)[C@H]3O)[C@H]3COC(=O)[C@H]23)OCO4)cc(OC)c1O	human respiratory syncytial virus	viral replication	BEAS-2B	5 µM, 40 h	–	80 ± 6.6%
CCn1cc(C(=O)NC(C)c2ccccc2)c(=O)c2cc(F)c(N3CCN(C(=O)c4ccco4)CC3)cc21 (stereo not shown)	Mycolicibacterium smegmatis	microbial growth	–	50 µM	–	~50%
N#Cc1ccc(-c2ccc(-c3cccs3)o2)cc1F	Salmonella enterica	sodium azide mutagenicity	TA1535	10 µM, 48 h, with: sodium azide 2 µg/plate after pre-exposure	–	94%
Nc1ncnc2c1ncn2CCOCP(=O)(O)O	human alphaherpesvirus 2	viral replication	–	0.04 µg/mL, 144 h	–	80%
CCN(CC)CCNC(=O)c1cn(CC)c2cc(N3CCN(C(=O)c4ccco4)CC3)c(F)cc2c1=O	Mycolicibacterium smegmatis	microbial growth	–	50 µM	–	~20%
CN(Cc1cnc2nc(N)nc(N)c2n1)c1ccc(C(=O)N[C@@H](CCC(=O)O)C(=O)O)cc1	human respiratory syncytial virus	viral replication	BEAS-2B	5 µM, 40 h	–	99 ± 0.5%
N=C(N)c1ccc(-c2ccc(-c3ccco3)o2)c(F)c1	Salmonella enterica	sodium azide mutagenicity	TA1535	20 µM, 48 h, with: sodium azide 2 µg/plate co-exposure	–	91%
CC(C)[C@]12O[C@H]1[C@@H]1O[C@]13[C@]1(O[C@H]1C[C@H]1C4=C(CC[C@@]13C)C(=O)OC4)[C@@H]2O	human respiratory syncytial virus	viral replication	BEAS-2B	5 µM, 40 h	–	1.5 ± 21%
CCn1cc(C(=O)NC2CC2)c(=O)c2cc(F)c(N3CCN(C(=O)c4ccco4)CC3)cc21	Mycolicibacterium smegmatis	microbial growth	–	50 µM	–	~20%
N#Cc1ccc(-c2ccc(-c3cccs3)o2)c(F)c1	Salmonella enterica	sodium azide mutagenicity	TA1535	20 µM, 48 h, with: sodium azide 2 µg/plate co-exposure	–	90%
COc1cccc2c1C(=O)c1c(O)c3c(c(O)c1C2=O)C[C@@](O)(C(=O)CO)C[C@@H]3O[C@H]1C[C@H](N)[C@@H](O)[C@H](C)O1	human respiratory syncytial virus	viral replication	BEAS-2B	5 µM, 40 h	–	62 ± 6.3%
O=C(Nc1ccccc1-c1ccc(Cl)cc1)c1cccnc1Cl	Sclerotinia sclerotiorum	microbial growth	–	50 µg/mL	–	100%
Cc1nc2ccc(CN(C)c3ccc(C(=O)N[C@@H](CCC(=O)O)C(=O)O)s3)cc2c(=O)[nH]1	human respiratory syncytial virus	viral replication	BEAS-2B	5 µM, 40 h	–	91 ± 1%
N=C(N)c1ccc(-c2ccc(-c3ccco3)o2)cc1F	Salmonella enterica	sodium azide mutagenicity	TA1535	20 µM, 48 h, with: sodium azide 2 µg/plate co-exposure	–	107%

For quick reference, copied from above:
Structure (SMILES)	organism	test	test system	setting	how to read	inhibition
CCn1cc(C(=O)NCc2ccncc2)c(=O)c2cc(F)c(N3CCN(C(=O)c4ccco4)CC3)cc21	Mycolicibacterium smegmatis	microbial growth	–	50 µM	–	~20%
